Results of several laboratories.
Every numbered part comes from another study and shows a few of its results, in no order.
Sequence of UniProt P36897 (whole entry, looked up): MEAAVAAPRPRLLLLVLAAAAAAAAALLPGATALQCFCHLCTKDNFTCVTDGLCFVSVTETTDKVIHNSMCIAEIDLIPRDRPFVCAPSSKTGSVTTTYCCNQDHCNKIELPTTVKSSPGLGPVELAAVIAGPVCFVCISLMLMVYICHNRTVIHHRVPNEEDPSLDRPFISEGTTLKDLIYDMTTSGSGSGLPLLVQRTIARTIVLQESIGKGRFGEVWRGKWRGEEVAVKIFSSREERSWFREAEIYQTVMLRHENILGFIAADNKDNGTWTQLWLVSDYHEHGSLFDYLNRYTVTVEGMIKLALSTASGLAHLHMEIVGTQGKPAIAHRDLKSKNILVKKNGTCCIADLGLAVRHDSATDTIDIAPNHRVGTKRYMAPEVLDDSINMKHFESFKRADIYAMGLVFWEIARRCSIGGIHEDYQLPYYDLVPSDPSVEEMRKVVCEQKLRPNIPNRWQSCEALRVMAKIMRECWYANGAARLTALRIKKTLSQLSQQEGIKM
Sequence of UniProt P51812 (whole entry, looked up): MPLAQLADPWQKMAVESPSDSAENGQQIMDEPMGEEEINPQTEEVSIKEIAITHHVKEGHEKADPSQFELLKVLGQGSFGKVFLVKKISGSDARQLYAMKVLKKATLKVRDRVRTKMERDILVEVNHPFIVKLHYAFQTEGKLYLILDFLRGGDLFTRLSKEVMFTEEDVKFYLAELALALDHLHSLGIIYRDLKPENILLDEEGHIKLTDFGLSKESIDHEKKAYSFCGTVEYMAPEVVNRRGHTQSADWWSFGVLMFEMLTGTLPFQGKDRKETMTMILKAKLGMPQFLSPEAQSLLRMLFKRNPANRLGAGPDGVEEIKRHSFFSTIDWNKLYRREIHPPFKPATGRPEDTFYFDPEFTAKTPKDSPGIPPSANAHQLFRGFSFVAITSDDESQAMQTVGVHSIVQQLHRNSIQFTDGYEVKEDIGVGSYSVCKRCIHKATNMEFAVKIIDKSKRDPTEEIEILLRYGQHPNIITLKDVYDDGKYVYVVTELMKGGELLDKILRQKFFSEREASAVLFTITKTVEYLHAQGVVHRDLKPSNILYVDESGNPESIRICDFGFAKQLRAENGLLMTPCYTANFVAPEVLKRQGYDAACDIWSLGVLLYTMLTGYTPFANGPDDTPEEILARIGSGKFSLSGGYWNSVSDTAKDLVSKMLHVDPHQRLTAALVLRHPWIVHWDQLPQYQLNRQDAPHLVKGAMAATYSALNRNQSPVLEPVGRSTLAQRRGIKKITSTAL
Sequence of UniProt P29322 (whole entry, looked up): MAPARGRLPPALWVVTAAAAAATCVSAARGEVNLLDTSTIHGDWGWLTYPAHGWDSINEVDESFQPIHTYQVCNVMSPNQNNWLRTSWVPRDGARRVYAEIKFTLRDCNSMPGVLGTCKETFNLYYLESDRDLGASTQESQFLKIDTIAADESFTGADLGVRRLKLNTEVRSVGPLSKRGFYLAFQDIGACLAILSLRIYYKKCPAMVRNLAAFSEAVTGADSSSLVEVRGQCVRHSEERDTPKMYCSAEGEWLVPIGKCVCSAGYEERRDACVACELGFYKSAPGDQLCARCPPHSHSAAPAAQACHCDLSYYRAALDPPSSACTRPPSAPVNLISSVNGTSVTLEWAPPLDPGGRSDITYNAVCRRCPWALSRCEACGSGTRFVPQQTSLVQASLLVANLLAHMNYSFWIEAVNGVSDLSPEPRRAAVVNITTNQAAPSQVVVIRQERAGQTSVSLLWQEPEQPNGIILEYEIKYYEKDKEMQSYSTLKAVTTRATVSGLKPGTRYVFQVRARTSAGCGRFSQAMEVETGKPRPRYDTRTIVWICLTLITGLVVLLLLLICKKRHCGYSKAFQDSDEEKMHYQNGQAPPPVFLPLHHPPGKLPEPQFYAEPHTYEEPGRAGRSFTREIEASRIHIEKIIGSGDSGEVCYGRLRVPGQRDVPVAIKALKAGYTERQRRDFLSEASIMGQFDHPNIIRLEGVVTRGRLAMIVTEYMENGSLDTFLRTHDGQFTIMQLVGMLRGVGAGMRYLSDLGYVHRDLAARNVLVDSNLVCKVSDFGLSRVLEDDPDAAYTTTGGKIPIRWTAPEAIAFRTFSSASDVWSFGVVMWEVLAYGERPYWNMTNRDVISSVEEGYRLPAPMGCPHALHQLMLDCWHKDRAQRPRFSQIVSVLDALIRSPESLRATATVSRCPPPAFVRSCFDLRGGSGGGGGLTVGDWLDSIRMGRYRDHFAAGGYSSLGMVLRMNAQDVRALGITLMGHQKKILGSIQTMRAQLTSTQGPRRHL
Sequence of UniProt Q96RR4 (whole entry, looked up): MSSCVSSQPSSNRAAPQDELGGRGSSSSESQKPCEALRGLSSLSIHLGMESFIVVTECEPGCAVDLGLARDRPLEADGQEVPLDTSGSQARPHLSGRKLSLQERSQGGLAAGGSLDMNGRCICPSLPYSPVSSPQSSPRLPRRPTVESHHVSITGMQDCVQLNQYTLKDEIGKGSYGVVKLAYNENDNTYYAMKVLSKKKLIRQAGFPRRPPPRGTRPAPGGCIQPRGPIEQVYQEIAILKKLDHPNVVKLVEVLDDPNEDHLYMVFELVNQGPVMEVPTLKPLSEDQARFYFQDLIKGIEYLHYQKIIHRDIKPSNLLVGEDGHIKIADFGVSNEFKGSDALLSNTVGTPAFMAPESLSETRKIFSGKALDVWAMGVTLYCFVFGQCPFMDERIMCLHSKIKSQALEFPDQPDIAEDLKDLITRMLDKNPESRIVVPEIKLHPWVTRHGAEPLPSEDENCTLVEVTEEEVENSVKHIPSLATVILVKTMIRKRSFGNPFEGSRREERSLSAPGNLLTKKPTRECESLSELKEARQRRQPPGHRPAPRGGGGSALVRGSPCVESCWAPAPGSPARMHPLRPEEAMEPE
Sequence of UniProt P35626 (whole entry, looked up): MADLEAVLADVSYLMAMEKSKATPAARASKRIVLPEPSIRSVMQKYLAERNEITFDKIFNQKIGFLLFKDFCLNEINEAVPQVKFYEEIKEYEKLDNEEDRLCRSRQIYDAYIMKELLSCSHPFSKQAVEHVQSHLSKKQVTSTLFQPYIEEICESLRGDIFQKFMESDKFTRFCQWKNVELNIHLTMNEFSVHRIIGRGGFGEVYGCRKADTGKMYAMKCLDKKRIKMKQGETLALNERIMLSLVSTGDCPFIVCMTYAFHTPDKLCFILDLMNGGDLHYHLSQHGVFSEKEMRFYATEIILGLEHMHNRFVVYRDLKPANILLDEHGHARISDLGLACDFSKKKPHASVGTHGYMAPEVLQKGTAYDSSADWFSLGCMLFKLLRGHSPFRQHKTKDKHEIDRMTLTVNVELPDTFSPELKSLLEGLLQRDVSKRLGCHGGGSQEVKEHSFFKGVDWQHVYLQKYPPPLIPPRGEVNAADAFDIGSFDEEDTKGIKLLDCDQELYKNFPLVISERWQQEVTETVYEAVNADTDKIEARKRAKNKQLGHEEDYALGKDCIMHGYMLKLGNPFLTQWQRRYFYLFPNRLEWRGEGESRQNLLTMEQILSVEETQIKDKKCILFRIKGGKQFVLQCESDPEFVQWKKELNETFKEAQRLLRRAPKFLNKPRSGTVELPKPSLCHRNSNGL
Sequence of UniProt P53355 (whole entry, looked up): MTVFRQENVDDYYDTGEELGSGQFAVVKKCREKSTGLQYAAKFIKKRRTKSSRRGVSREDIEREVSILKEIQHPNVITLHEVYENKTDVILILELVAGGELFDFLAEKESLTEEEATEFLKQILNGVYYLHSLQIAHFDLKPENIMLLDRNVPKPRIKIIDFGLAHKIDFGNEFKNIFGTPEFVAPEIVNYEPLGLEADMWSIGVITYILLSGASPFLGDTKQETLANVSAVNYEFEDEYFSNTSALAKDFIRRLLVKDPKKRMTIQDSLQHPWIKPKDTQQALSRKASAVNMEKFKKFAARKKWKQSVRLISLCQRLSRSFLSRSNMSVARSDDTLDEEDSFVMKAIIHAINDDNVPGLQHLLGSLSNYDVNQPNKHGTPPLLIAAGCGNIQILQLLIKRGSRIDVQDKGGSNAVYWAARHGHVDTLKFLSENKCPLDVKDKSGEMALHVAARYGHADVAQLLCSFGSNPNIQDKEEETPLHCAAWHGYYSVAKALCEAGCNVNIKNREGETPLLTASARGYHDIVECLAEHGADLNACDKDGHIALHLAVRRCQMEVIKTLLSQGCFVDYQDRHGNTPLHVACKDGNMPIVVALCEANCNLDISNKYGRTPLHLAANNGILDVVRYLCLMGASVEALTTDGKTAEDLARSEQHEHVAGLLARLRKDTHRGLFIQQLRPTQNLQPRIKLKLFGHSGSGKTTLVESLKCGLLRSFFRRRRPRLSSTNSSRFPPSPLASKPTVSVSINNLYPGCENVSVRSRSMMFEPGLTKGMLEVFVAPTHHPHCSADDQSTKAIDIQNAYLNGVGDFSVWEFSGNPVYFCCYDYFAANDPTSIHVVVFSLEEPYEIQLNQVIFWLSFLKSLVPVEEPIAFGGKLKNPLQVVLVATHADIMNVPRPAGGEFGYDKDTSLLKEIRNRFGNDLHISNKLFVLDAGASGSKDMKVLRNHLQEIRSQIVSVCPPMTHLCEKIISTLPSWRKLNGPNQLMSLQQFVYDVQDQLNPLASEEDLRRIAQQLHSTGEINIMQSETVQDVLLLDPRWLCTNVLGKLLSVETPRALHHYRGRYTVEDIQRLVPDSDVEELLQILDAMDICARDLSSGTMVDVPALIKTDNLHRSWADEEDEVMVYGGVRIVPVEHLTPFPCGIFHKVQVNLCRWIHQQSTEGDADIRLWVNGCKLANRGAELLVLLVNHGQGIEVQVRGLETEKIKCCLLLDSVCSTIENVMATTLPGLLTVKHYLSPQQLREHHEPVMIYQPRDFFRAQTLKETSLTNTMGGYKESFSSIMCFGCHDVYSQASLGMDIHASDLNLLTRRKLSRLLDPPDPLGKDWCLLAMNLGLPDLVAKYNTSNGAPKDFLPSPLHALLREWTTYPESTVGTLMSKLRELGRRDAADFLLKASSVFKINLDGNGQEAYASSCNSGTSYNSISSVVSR

Set 1
Cell line: mouse MPNST tumor cells
Technique: high-content immunofluorescence imaging
Refers to: nuclear SOX9
Tested at: 10 µM
Time: 12 h
Notes: mean of 2 replicates
Relative to: DMSO control
Reading: higher = more nuclear SOX9
| SMILES | nuclear SOX9 intensity |
| --- | --- |
| O=C(NNC(=O)c1ccc(CNS(=O)(=O)c2ccc(F)c(Cl)c2)cc1)c1ccccc1 | 99.5 % of DMSO |
| FCc1ccc(OCCOc2ccc(Cl)cc2Cl)c(Cl)n1 | 119 % of DMSO |
| O=[N+]([O-])c1c(Nc2cc(F)cc(Cl)c2)ccc2nonc12 | 92.1 % of DMSO |
| O=c1[nH]c(=O)n(C2CCCO2)cc1F (stereo not drawn) | 105 % of DMSO |
| O=C(CC12CC3CC(CC(C3)C1)C2)Nc1cccc2nc(NCCNCCO)ccc12 | 147 % of DMSO |
| CCN(CC)CCOCCOC(=O)C(CC)(CC)c1ccccc1 | 114 % of DMSO |

Set 2
SMILES: CO[C@H]1C[C@@H]2CC[C@@H](C)[C@@](O)(O2)C(=O)C(=O)N2CCCC[C@H]2C(=O)O[C@H]([C@H](C)C[C@@H]2CC[C@@H](O)[C@H](OC)C2)CC(=O)[C@H](C)/C=C(\C)[C@@H](O)[C@@H](OC)C(=O)[C@H](C)C[C@H](C)/C=C/C=C/C=C/1C
Read-out: enzyme activity
Action: inhibitor
Tested at: 0.5 µM
Relative to: control
| target | remaining activity |
| --- | --- |
| TGFBR1 (Homo sapiens, UniProt P36897) | 99.5% |
| GRK3 (Homo sapiens, UniProt P35626) | 98% |
| CAMKK2 (Homo sapiens, UniProt Q96RR4) | 115% |
| STK39 (Homo sapiens, UniProt Q9UEW8) | 97.9% |
| DAPK1 (Homo sapiens, UniProt P53355) | 88.5% |
| IKBKB (Homo sapiens, UniProt O14920) | 109% |
| TGFBR2 (Homo sapiens, UniProt P37173) | 136% |

Set 3
Compound: O=C(NCc1ncc(C(F)(F)F)cc1Cl)c1ccc2c(c1)C1(CCS(=O)(=O)CC1)[C@H](C1CC1)N2S(=O)(=O)c1ccc(F)cc1
Read-out: cell-free assay
Technique: competition with immobilised ligand
Tested at: 1 µM
| target | remaining binding |
| --- | --- |
| SNRK (Homo sapiens, UniProt Q9NRH2) | 77% |
| CDK7 (Homo sapiens, UniProt P50613) | 64% |
| FLT3 (Homo sapiens, UniProt P36888, D835V) | 70% |
| Ribosomal protein S6 kinase alpha-3, N-terminal kinase domain (RPS6KA3, Homo sapiens, UniProt P51812) | 70% |
| EPHA8 (Homo sapiens, UniProt P29322) | 97% |
| EGFR (Homo sapiens, UniProt P00533, L861Q) | 84% |
| Non-receptor tyrosine-protein kinase TYK2, JH1 (TYK2, Homo sapiens, UniProt P29597) | 92% |

Set 4
Read-out: AlphaScreen signal
Technique: AlphaScreen counter screen
Matrix: His6 peptide without bromodomain
Tested at: 50 µM
Notes: assay interference check
| Structure (SMILES) | inhibition [%] |
| --- | --- |
| NC(=O)c1ccc(-c2nc(-c3ccc4c(c3)OCCO4)c(-c3ccccn3)[nH]2)cc1 | 43.4 |
| CCc1sc2nc[nH]c(=O)c2c1-c1ccccc1 | 11.8 |
| COc1ccc(Nc2nc(N)nc3[nH]cnc23)cc1 | 11.6 |
| CN1CCC(COc2cnc(-c3cccc(Cn4nc(-c5cccc(C#N)c5)ccc4=O)c3)nc2)CC1 | 12.7 |
| CCOc1ccc(-c2csc3nc[nH]c(=O)c23)cc1 | 5 |
| Cc1sc2nc[nH]c(=O)c2c1-c1ccc(Cl)cc1 | 8.75 |
| CCc1ccc(-c2csc3nc[nH]c(=O)c23)cc1 | 11.3 |

Excerpt of the above (set 4):
| Structure (SMILES) | inhibition [%] |
| --- | --- |
| CN1CCC(COc2cnc(-c3cccc(Cn4nc(-c5cccc(C#N)c5)ccc4=O)c3)nc2)CC1 | 12.7 |
